Results collected from several papers.
Lines come from different studies, so protocols differ.
Medium: plasma

| Compound | test system | conditions | Cmax |
| --- | --- | --- | --- |
| COc1ccc(C[C@@H]2NC(=O)[C@H]([C@@H](C)O)NC(=O)[C@@H]3[C@@H]4CCN3C(=O)[C@@H]3Cc5cn(c6ccc(F)cc56)CCCCCCN(Cc5ccc(cc5)CCNC(=O)[C@]5(C)CCCN5C2=O)C(=O)CCC(=O)N[C@@H](C)C(=O)N[C@H](CNC(=O)CCCCC[N+](C)(C)C)C(=O)N[C@@H](Cc2cccc(c2)CNC(=O)CO4)C(=O)N3)cc1 | healthy humans | oral, 10 mg once daily, day 14, dosed 30 min post-meal, added: sodium caprate 360 mg | 5.28 nM |
| Cc1ncc2n1-c1ccc(Cl)cc1C(c1ccccc1F)=NC2 | humans | oral, 2 mg, day 1 | 11.6 ng/mL |
| NS(=O)(=O)Nc1ncnc(OCCOc2ncc(Br)cn2)c1-c1ccc(Br)cc1 | healthy adult humans, both sexes | oral, 10/40 mg fixed-dose combination, single dose, fasted | 187 ng/mL |
| Cc1cnc(C(=O)N[C@H]2CCCCC/C=C\[C@@H]3C[C@@]3(C(=O)NS(=O)(=O)C3CC3)NC(=O)[C@@H]3C[C@@H](Oc4nc5ccccc5c5ccccc45)CN3C2=O)cn1 | healthy human volunteers | oral, dose not given, added: pravastatin plus 2D regimen | 153 ng/mL |
| CC[C@@]1(O)C(=O)OCc2c1cc1n(c2=O)Cc2cc3c(CN(C)C)c(O)ccc3nc2-1 | human patients | oral, 8 mg weekly, geometric mean, added: pazopanib 800 mg daily | 46.8 ng/mL |
| O[C@H]1CCCN[C@@H]1CCCn1cnc2c(Cl)c(Cl)ccc21 | healthy human volunteers | oral, 100 mg, day 1, multiple ascending dose | 95.7 ng/mL |
| CC(C)c1nc(CN(C)C(=O)N[C@H](C(=O)N[C@@H](Cc2ccccc2)C[C@H](O)[C@H](Cc2ccccc2)NC(=O)OCc2cncs2)C(C)C)cs1 | healthy human volunteers | oral, dose not given, added: omeprazole plus 2D regimen | 2260 ng/mL |
| Cc1ncc2n1-c1ccc(Cl)cc1C(c1ccccc1F)=NC2 | human | intravenous, 10 µg, microdose, baseline, geometric mean | 0.155 ng/mL |
| CCC(=O)C(CC(C)N(C)C)(c1ccccc1)c1ccccc1 (stereo not shown) | human | oral, 40 mg, day 1, steady state, dose-normalized, alone | 362 ng/mL |
| COC(=O)N[C@H](C(=O)N1CCC[C@H]1C(=O)Nc1ccc([C@@H]2CC[C@@H](c3ccc(NC(=O)[C@@H]4CCCN4C(=O)[C@@H](NC(=O)OC)C(C)C)cc3)N2c2ccc(C(C)(C)C)cc2)cc1)C(C)C | healthy human volunteers | oral, dose not given, added: rosuvastatin plus 2D regimen | 110 ng/mL |

Excerpt of the above:
| Compound | test system | conditions | Cmax |
| --- | --- | --- | --- |
| Cc1ncc2n1-c1ccc(Cl)cc1C(c1ccccc1F)=NC2 | human | intravenous, 10 µg, microdose, baseline, geometric mean | 0.155 ng/mL |
| CC[C@@]1(O)C(=O)OCc2c1cc1n(c2=O)Cc2cc3c(CN(C)C)c(O)ccc3nc2-1 | human patients | oral, 8 mg weekly, geometric mean, added: pazopanib 800 mg daily | 46.8 ng/mL |
